Assay results collected from several papers.
Each line is one published result; not all experiments were run side by side. Several values in a cell are separate wells, animals, samples, runs or records. ± marks the error that the study gave.
CYP3A4: Cytochrome P450 3A4 (CYP3A4, Homo sapiens, UniProt P08684)
Sequence of UniProt P08684 (whole entry, looked up): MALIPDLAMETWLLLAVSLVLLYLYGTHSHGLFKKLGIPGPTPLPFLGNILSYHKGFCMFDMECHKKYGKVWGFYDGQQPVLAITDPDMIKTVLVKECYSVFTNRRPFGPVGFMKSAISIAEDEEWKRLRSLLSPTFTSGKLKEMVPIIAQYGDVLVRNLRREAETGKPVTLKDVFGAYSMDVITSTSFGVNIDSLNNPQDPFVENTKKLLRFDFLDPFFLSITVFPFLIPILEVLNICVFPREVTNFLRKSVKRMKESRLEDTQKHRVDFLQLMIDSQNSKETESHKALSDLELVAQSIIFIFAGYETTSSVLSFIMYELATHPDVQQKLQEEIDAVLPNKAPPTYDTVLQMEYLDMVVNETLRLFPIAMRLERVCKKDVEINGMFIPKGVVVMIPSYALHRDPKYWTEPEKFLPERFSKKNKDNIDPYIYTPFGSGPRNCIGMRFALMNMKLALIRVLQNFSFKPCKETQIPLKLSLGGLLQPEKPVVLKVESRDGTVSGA
Sequence of UniProt O70423 (whole entry, looked up): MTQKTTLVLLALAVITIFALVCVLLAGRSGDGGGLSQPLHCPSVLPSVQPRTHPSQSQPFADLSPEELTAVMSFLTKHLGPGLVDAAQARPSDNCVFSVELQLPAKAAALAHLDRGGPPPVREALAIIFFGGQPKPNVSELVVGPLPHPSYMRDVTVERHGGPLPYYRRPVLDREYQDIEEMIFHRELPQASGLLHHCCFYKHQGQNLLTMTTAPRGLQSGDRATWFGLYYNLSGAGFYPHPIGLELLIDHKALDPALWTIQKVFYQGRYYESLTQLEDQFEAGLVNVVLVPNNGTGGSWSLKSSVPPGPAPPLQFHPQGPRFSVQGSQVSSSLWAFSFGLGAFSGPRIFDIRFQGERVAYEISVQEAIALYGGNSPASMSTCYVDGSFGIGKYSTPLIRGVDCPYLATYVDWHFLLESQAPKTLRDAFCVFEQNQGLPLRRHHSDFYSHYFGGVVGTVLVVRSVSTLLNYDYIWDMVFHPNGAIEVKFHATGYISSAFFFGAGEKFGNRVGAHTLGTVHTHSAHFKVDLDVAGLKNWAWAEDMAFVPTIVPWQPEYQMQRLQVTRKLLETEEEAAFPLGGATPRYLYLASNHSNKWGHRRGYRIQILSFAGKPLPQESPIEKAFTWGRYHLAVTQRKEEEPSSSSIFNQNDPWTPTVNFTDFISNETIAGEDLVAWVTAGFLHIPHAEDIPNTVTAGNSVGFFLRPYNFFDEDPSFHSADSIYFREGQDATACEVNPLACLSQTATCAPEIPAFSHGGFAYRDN

SMILES	target or system	assay	test system	conditions	scale	measurement	value
C=CC(=O)N(C)CCOc1c(N)ncnc1-c1cc(F)cc(NC(=O)c2ccc(C3CC3)cc2F)c1C	CYP3A4	–	recombinant enzyme	–	–	fraction unbound in incubation	0.96
Cc1cc(Nc2ncnc3ccc(NC4=NC(C)(C)CO4)cc23)ccc1Oc1ccn2ncnc2c1	CYP3A4	–	human, plasma	oral, 300 mg single dose, day 1, compound alone	–	Cmax (geometric mean)	488 ng/mL
Cc1cc(Nc2ccc(S(F)(F)(F)(F)F)cc2)n2nc(C(C)(F)F)nc2n1	Plasmodium falciparum	12-lead ECG	malaria patients	oral, 400 mg, increase above 30 ms	–	patients with QTcF increase	20%
C=C(F)C(=O)N1CCN(c2nc(OC[C@@H]3CCCN3C)nc3c2CCN(c2cccc4cccc(Cl)c24)C3)C[C@@H]1CC#N	CYP3A4	substrate	recombinant human CYP isoforms	–	–	fraction metabolized	72%
O=C(CCc1ccc(O)cc1)c1c(O)cc(O)cc1O[C@@H]1O[C@H](CO)[C@@H](O)[C@H](O)[C@H]1O	Caco-2 monolayers	apical to basolateral transport	–	100 µg/mL, 2 h	–	amount transported	2.33 ± 0.2%
NCc1cc2c(cc1F)C(=O)N(C1CCC(=O)NC1=O)C2 (stereo not drawn)	Amine oxidase [copper-containing] 3 (Mus musculus, UniProt O70423)	substrate, LC-MS/MS	recombinant mouse enzyme	10 µM, 8 h, pH 7.4	–	concentration	1.7 µM
O=c1cc(-c2ccccc2)oc2cc(O)c(O)c(O)c12	Caco-2 monolayers	apical to basolateral transport	–	100 µg/mL, 2 h	–	amount transported	7.31 ± 0.01%
COc1cc(/C=C/C=C2\SC(=S)NC2=O)cc(OC)c1O	HEK-293T	CellTiter-Glo	–	2.5 µM, 24 h, unit not given	baseline: untreated	viability	0.987 and 1.05
O=C(O)[C@H]1O[C@@H](Oc2cc3oc(-c4ccccc4)cc(=O)c3c(O)c2O)[C@H](O)[C@@H](O)[C@@H]1O	Caco-2 monolayers	apical to basolateral transport	–	100 µg/mL, 2 h	–	amount transported	8.56 ± 0.01%
CC[C@H]1[C@@H](O)[C@@H]2[C@H](CC[C@]3(C)[C@@H]([C@H](C)CCNC(=O)NS(=O)(=O)c4ccc(C(C)(C)C)cc4)CC[C@@H]23)[C@@]2(C)CC[C@@H](O)C[C@@H]12	CYP3A4	–	human, plasma	dose not given, mean, alone	–	AUC(0-t)	421 ng·h/mL
COc1cccc(-c2n[nH]c(SCc3ccccn3)n2)c1OC	CHO-WBL	–	–	100 µg/mL, 3 h, without S9	–	binucleated cells with micronuclei	1.2%
O=c1cc(-c2ccc(O)c(O)c2)oc2cc(O)cc(O)c12	Caco-2 monolayers	apical to basolateral transport	–	100 µg/mL, 2 h	–	amount transported	5.62 ± 0.03%

A few entries again:
SMILES	target or system	assay	test system	conditions	scale	measurement	value
CC[C@H]1[C@@H](O)[C@@H]2[C@H](CC[C@]3(C)[C@@H]([C@H](C)CCNC(=O)NS(=O)(=O)c4ccc(C(C)(C)C)cc4)CC[C@@H]23)[C@@]2(C)CC[C@@H](O)C[C@@H]12	CYP3A4	–	human, plasma	dose not given, mean, alone	–	AUC(0-t)	421 ng·h/mL
